Experimental data gathered from unrelated publications.
Compare with care: the assays were run in different laboratories. Several values in a cell are separate wells, animals, samples, runs or records. Numbers after ± are the reported error. Values after ≈ are worked out from the molar mass of the structure shown.

COc1c(CCC[P+](c2ccccc2)(c2ccccc2)c2ccccc2)cc2c(c1OC)OCO2.[I-] gave an LC50 of > -4 log M (HT-29; SRB).
CC1(C)SC2C(NC(=O)C(NC(=O)C3=C(O)C(Cc4ccco4)NC3=O)c3ccccc3)C(=O)N2C1C(=O)O (stereo not shown) has an MIC of 6.25 µg/mL (Escherichia coli; broth microdilution; ATCC 25922 wild type; no clavulanic acid).
For COc1ccc(-n2nc(C(C)=O)s/c2=N\N=C(/C)c2ccc(NC(C)=O)cc2)cc1, the toxicity was 96.8% (WI-38; 2.5 µM).
With CCOC(=O)c1nn(Cc2ccccn2)c(C)c1C(=O)NC1CCC(C(F)(F)F)CC1 (stereo not shown) the viability reduction was 10.7% (Schistosoma mansoni; microscopic viability scoring; newly transformed schistosomula; 10 µM, 72 h, prescreen).
CCC1(c2ccc(N)cc2)CCC(=O)NC1=O (stereo not shown) gave an IC50 of > 50000 nM (7702 normal human cells; cell growth, CCK-8; 48 h).
The ED50 of CC1(C)C(C(=O)c2cn(CCCCCF)c3ccccc23)C1(C)C is reported as 0.9 µmol/kg (spontaneous locomotor activity, mouse tetrad; ICR mouse male; intravenous).
For CCOC(=O)CC1(C(F)(F)F)N=C(NCc2ccccc2)C(=O)O1 (stereo not shown), the viability reduction was 13.8% (Schistosoma mansoni; microscopic viability scoring; newly transformed schistosomula; 10 µM, 72 h, prescreen).
The combination index of COC(=O)N[C@H](C(=O)N1CCC[C@H]1c1ncc(-c2ccc(-c3ccc(-c4cnc([C@@H]5CCCN5C(=O)[C@@H](NC(=O)OC)C(C)C)[nH]4)cc3)cc2)[nH]1)C(C)C is reported as 0.67 (Hepatitis C virus; replicon cells; 50% effect level, together with: NS5B inhibitor, ratio 1:1).
The LC50 of COc1cc(CCC[P+](c2ccccc2)(c2ccccc2)c2ccccc2)c(OC)c2c1OCO2.[I-] is reported as -4.62 log M (NCI-H460; SRB).
CC[C@H](C)[C@H](NC(=O)[C@H](C)NC(=O)[C@H](CCCCN)NC(=O)[C@H](CC(C)C)NC(=O)[C@H](C)NC(=O)[C@@H](NC(=O)[C@H](Cc1c[nH]cn1)NC(=O)[C@H](CC(C)C)NC(=O)[C@@H](NC(=O)[C@@H](NC(=O)[C@H](CCCCN)NC(=O)[C@H](C)NC(=O)[C@H](C)NC(=O)[C@H](CO)NC(=O)[C@H](CCCCN)NC(=O)[C@H](Cc1ccccc1)NC(=O)[C@@H](NC(=O)[C@H](CCCCN)NC(=O)[C@H](CC(C)C)NC(=O)[C@H](Cc1ccccc1)NC(=O)[C@H](CO)NC(=O)[C@H](CCCCN)NC(=O)[C@H](Cc1c[nH]c2ccccc12)NC(=O)[C@H](CCCCN)NC(C)=O)[C@@H](C)O)[C@@H](C)O)C(C)C)[C@@H](C)O)C(=O)N[C@@H](CO)C(=O)N[C@@H](CO)C(N)=O gave an MIC50 of 8 µg/mL (≈ 2.73 µM) (Enterobacter aerogenes; 40 strains).
With O=C(Nc1cccnn1)N1CCN([C@@H]2CCOc3cc(C(F)(F)F)ccc32)CC1 the inhibition was 64% (sigma receptor (non-selective); binding; 20 µM).
Cc1c2c(nn1C)CSCc1cc(n(C)n1)CSc1cc(c3ccccc3c1)OCCCc1c(C(=O)O)n(C)c3c-2c(Cl)ccc13 — result for “log2 fold change”: -5.3 (Staphylococcus aureus; label-free quantitative proteomics, measured: SAOUHSC_01450 protein; SA113; concentration not given; relative to: untreated control).
COC(=O)c1ccc(C(=O)OC)nc1 gave a viability reduction of 23.3% (Schistosoma mansoni; microscopic viability scoring; newly transformed schistosomula; 10 µM, 72 h, prescreen).
CCCCC1(CCCC)CN(c2ccccc2)c2cc(SC)c(OCC(=O)N[C@@H](C(=O)NCC(=O)O)c3ccccc3)cc2S(=O)(=O)C1 has a serum LDL-C of 75.4 mg/dL (measured: LDL cholesterol; human, serum; 15 mg once daily, day 13).
CC[C@H](C)[C@H](NC(=O)[C@H](CCCCN)NC(=O)[C@@H](NC(=O)[C@@H](NC(=O)[C@H](CC(C)C)NC(=O)[C@H](CCCNC(=N)N)NC(=O)[C@@H](NC(=O)[C@H](CC(C)C)NC(=O)[C@H](CCCNC(=N)N)NC(=O)CNC(=O)[C@H](Cc1ccccc1)NC(=O)[C@@H](N)CCCNC(=N)N)[C@@H](C)CC)[C@@H](C)CC)C(C)C)C(=O)N[C@@H](C)C(=O)N[C@@H](CCCNC(=N)N)C(=O)N[C@@H](CCCNC(=N)N)C(=O)N[C@@H](C)C(=O)N[C@@H](Cc1c[nH]cn1)C(=O)N[C@@H](CCCNC(=N)N)C(=O)N[C@@H](C)C(=O)N[C@@H](CCCNC(=N)N)C(=O)N[C@@H](CO)C(=O)N[C@@H](C)C(=O)N[C@H](C(=O)N[C@@H](CCCCN)C(=O)N[C@@H](C)C(=O)N[C@@H](C)C(=O)N[C@@H](CO)C(=O)N[C@@H](CC(N)=O)C(=O)N[C@H](C(=O)N[C@@H](C)C(=O)N[C@@H](CCC(=O)O)C(=O)N[C@@H](CC(C)C)C(=O)N[C@@H](C)C(=O)N[C@@H](Cc1c[nH]cn1)C(=O)NCC(=O)N[C@@H](CCC(=O)O)C(=O)O)C(C)C)C(C)C has an EC50 of 190 ± 60 nM (SH-SY5Y; intracellular calcium increase, calcium dye fluorescence; 600 s).
For OC(Cn1cncn1)(Cn1cncn1)c1ccc(F)cc1F, the OD600 was 0.063 and 0.074 and 0.064 (Saccharomyces cerevisiae; cell growth; Pdr5 deleted, empty vector; 2^-1.152 µg/mL).
CN1CCN(S(=O)(=O)c2cc([N+](=O)[O-])ccc2N(CCOS(C)(=O)=O)CCOS(C)(=O)=O)CC1 has an event-free survival of 40.3 days (NSG mice, sample BA PDX; intraperitoneal, 25 mg/kg weekly x3).
For C[C@]12CC[C@H]3[C@@H](CC=C4CC(O)CC[C@@]43CO)[C@@H]1CCC2O (stereo partly shown), “anti-inflammatory marker level” read “increased” (measured: adiponectin, IL-10; rat, GAN diet-induced MASH, white adipose tissue; dose not given; relative to: GAN diet plus vehicle).
C[C@@H]1C[C@@]2(N=CCS2)[C@]2(O)O[C@@H]3C[C@@]4(C=O)[C@@H](CC[C@@H]5[C@@H]4CC[C@]4(C)[C@@H](C6=CC(=O)OC6)CC[C@]54O)C[C@H]3O[C@@H]2O1 has a viability effect of 100% (Schistosoma mansoni; microscopic viability score; adult worms; 10 µM, 72 h).
CC[C@H](C)[C@@H]1NC(=O)[C@@H]2CCCN2C(=O)[C@H](CC(C)C)NC(=O)[C@H](CC(C)C)NC(=O)CNC(=O)[C@@H](NC(=O)[C@@H](NC(=O)[C@H](CC(=O)O)NC(=O)CNC(=O)[C@@H](NC(=O)[C@H](C)NC(=O)CNC(=O)[C@H](CCCCN)NC(=O)[C@H](CC(C)C)NC(=O)[C@H](CC(C)C)NC(=O)[C@H](CCCCN)NC(=O)CNC(=O)[C@@H](NC(=O)[C@@H](N)CC(C)C)C(C)C)C(C)C)C(C)C)CSSC[C@@H](C(=O)O)NC1=O — result for “log2 fold change”: -3.4 (RNA-seq, measured: Samsn1; mouse, traumatic brain injury model, frontal cortex and hippocampus; dose not given; relative to: TBI alone).
CC(C)(C)n1nnnc1C(c1ccc([N+](=O)[O-])cc1)N1CCc2ccccc2C1 (stereo not shown) gave a viability reduction of 12.5% (Schistosoma mansoni; microscopic viability scoring; newly transformed schistosomula; 10 µM, 72 h, prescreen).
COc1cccc(-c2cc(=O)c3ccccc3o2)c1N: “basal cAMP level” “no effect” (RXFP1; RXFP1-expressing cells; concentration not given).

Repeated from above:
The combination index of COC(=O)N[C@H](C(=O)N1CCC[C@H]1c1ncc(-c2ccc(-c3ccc(-c4cnc([C@@H]5CCCN5C(=O)[C@@H](NC(=O)OC)C(C)C)[nH]4)cc3)cc2)[nH]1)C(C)C is reported as 0.67 (Hepatitis C virus; replicon cells; 50% effect level, together with: NS5B inhibitor, ratio 1:1).
The LC50 of COc1cc(CCC[P+](c2ccccc2)(c2ccccc2)c2ccccc2)c(OC)c2c1OCO2.[I-] is reported as -4.62 log M (NCI-H460; SRB).
CC[C@H](C)[C@H](NC(=O)[C@H](C)NC(=O)[C@H](CCCCN)NC(=O)[C@H](CC(C)C)NC(=O)[C@H](C)NC(=O)[C@@H](NC(=O)[C@H](Cc1c[nH]cn1)NC(=O)[C@H](CC(C)C)NC(=O)[C@@H](NC(=O)[C@@H](NC(=O)[C@H](CCCCN)NC(=O)[C@H](C)NC(=O)[C@H](C)NC(=O)[C@H](CO)NC(=O)[C@H](CCCCN)NC(=O)[C@H](Cc1ccccc1)NC(=O)[C@@H](NC(=O)[C@H](CCCCN)NC(=O)[C@H](CC(C)C)NC(=O)[C@H](Cc1ccccc1)NC(=O)[C@H](CO)NC(=O)[C@H](CCCCN)NC(=O)[C@H](Cc1c[nH]c2ccccc12)NC(=O)[C@H](CCCCN)NC(C)=O)[C@@H](C)O)[C@@H](C)O)C(C)C)[C@@H](C)O)C(=O)N[C@@H](CO)C(=O)N[C@@H](CO)C(N)=O gave an MIC50 of 8 µg/mL (≈ 2.73 µM) (Enterobacter aerogenes; 40 strains).
